Published values gathered from unrelated publications.
Several values in a cell are separate wells, animals, samples, runs or records. ± gives the spread as reported.
TOP2A: DNA topoisomerase 2-alpha (TOP2A, Homo sapiens, UniProt P11388)
Sequence of UniProt P11388 (whole entry, looked up): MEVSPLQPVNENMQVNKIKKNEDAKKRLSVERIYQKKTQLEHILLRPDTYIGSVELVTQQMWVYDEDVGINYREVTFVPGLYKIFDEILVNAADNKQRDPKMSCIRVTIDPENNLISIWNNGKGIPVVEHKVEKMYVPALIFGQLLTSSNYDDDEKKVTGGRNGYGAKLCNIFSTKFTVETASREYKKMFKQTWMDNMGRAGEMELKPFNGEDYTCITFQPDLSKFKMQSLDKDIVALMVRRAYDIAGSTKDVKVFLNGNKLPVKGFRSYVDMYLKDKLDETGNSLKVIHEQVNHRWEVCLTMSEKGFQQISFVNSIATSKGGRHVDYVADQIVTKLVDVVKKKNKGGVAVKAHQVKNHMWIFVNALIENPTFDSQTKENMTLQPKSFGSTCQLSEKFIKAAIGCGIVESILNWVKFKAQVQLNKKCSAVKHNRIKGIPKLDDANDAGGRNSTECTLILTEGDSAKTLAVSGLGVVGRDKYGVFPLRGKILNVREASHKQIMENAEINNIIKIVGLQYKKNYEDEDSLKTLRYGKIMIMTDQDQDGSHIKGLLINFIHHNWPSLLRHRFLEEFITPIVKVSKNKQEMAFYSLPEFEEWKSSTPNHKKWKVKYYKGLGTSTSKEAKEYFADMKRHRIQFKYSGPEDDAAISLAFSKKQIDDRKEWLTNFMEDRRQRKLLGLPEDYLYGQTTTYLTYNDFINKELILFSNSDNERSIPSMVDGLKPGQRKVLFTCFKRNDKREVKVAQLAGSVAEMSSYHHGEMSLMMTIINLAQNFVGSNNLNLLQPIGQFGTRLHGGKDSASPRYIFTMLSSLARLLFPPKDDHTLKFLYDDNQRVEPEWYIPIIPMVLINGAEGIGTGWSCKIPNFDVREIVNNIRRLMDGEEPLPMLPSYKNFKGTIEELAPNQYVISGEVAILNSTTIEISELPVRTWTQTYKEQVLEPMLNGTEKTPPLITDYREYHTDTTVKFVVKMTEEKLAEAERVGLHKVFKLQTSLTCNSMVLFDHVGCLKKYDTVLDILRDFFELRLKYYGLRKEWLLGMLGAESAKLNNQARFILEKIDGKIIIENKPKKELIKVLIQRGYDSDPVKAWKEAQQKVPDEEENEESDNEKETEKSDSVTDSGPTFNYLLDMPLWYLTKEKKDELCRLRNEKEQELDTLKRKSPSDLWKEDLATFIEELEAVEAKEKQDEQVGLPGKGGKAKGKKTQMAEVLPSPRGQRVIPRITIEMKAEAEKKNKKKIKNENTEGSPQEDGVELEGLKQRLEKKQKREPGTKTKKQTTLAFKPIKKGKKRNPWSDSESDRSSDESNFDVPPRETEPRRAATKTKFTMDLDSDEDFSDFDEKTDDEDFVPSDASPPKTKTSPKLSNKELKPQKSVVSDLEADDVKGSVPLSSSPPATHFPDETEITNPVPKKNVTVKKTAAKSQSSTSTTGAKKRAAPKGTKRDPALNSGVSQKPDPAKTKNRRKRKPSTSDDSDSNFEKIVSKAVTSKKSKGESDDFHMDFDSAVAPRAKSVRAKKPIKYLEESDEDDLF
MKC1: Mitogen-activated protein kinase MKC1 (MKC1, Candida albicans, UniProt P43068)
Sequence of UniProt P43068 (whole entry, looked up): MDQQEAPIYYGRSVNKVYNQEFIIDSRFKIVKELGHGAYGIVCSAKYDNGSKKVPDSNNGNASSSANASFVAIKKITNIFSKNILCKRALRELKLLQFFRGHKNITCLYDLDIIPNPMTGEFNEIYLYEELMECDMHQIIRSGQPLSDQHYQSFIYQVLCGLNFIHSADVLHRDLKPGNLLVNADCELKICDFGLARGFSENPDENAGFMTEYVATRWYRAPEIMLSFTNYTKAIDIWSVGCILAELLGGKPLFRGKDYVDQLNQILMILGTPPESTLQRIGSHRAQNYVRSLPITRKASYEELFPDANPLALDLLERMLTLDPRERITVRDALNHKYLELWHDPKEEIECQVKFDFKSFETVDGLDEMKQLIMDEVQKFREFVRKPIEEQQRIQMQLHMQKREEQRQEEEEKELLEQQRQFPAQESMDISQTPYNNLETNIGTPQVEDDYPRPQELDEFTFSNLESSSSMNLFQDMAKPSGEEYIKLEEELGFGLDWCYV
Pteridine reductase 1: Pteridine reductase 1 (Leishmania major, UniProt Q01782)
Sequence of UniProt Q01782 (whole entry, looked up): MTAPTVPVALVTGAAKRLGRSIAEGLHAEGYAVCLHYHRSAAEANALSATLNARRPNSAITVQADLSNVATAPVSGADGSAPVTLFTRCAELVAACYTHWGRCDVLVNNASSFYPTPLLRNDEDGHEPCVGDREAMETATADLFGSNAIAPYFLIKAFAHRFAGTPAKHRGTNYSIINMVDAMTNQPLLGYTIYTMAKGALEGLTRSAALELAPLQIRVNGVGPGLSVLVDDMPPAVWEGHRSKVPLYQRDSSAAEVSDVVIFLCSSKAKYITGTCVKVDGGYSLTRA
BEST2: Bestrophin-2a (BEST2, Homo sapiens, UniProt Q8NFU1)
Sequence of UniProt P07550 (whole entry, looked up): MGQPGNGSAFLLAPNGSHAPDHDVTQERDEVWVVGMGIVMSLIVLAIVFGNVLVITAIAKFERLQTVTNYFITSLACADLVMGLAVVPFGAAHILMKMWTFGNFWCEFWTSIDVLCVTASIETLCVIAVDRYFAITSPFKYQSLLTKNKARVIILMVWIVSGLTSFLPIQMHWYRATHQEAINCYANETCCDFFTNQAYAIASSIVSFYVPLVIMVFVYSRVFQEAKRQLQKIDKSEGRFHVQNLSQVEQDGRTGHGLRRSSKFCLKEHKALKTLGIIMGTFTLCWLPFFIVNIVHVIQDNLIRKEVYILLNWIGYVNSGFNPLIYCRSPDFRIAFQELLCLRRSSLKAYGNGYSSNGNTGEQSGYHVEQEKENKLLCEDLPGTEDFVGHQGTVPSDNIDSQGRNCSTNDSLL
Sequence of UniProt Q8NFU1 (whole entry, looked up): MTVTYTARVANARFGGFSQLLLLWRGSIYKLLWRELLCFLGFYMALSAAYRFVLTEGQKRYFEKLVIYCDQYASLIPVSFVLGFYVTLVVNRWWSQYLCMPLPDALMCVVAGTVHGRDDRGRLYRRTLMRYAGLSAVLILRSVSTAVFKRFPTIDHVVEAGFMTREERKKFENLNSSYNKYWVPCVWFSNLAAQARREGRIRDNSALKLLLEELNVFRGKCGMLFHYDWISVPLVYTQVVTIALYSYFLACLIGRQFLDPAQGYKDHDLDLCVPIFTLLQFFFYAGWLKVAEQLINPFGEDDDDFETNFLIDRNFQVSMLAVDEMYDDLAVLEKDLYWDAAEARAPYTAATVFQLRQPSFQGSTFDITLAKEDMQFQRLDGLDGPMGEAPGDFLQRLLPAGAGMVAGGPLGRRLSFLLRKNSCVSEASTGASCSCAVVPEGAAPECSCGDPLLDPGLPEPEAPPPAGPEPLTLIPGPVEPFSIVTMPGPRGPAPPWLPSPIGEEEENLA
Sequence of UniProt Q9EP73 (whole entry, looked up): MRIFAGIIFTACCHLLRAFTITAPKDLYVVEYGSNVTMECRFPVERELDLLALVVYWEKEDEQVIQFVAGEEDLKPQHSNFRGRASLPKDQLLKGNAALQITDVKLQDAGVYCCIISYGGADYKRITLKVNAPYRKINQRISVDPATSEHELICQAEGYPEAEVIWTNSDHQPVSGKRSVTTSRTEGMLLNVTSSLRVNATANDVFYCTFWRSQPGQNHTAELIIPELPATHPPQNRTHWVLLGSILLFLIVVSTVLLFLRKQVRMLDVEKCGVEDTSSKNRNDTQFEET
Sequence of UniProt Q96RI1 (whole entry, looked up): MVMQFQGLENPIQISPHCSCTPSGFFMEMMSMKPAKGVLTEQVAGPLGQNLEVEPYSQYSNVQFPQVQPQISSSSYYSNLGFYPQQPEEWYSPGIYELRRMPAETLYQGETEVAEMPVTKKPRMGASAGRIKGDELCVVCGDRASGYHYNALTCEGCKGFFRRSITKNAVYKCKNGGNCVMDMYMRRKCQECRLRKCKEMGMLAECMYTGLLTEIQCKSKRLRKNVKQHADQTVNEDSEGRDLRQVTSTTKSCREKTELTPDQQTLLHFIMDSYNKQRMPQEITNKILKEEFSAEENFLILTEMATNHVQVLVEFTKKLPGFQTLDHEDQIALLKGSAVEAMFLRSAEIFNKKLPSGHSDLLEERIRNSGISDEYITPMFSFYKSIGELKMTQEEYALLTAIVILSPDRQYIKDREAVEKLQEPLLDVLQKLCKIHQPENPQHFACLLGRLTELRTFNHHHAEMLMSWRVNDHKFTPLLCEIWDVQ
Sequence of UniProt Q9NZQ7 (whole entry, looked up): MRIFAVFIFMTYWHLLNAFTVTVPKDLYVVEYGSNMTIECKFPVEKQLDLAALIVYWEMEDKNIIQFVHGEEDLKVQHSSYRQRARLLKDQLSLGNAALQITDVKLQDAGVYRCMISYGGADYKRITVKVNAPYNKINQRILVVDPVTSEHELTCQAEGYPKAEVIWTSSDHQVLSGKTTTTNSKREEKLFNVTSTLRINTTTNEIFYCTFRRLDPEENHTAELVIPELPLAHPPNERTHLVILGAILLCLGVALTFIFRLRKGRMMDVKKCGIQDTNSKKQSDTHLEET
Sequence of UniProt P08246 (whole entry, looked up): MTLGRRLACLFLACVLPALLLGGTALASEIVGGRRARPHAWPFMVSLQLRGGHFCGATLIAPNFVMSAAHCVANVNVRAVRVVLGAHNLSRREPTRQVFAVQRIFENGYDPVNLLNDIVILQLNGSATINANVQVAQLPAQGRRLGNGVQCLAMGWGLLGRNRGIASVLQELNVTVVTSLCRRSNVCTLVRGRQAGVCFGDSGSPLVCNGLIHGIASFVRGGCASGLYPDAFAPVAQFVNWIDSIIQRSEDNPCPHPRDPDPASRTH
Sequence of UniProt P15735 (whole entry, looked up): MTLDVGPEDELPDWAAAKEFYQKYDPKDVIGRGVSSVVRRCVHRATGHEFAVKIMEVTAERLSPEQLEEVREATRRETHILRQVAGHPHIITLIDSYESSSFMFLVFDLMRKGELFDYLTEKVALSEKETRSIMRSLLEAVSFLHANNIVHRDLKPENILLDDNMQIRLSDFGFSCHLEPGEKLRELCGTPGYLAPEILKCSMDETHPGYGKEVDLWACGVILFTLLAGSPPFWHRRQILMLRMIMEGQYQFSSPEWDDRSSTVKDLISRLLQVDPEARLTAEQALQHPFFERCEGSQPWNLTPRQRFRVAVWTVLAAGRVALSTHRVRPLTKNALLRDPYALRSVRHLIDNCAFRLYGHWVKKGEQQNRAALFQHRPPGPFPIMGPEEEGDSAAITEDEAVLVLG

| SMILES | tested on | assay | test system | conditions | scale | endpoint | result |
| --- | --- | --- | --- | --- | --- | --- | --- |
| O=c1nc(SCc2cc(F)cc(C(F)(F)F)c2)nc(SCc2ccc3nc(Cl)ccc3c2)[nH]1 | TOP2A | ATPase activity | – | 31.25 µM, with: ATP 0.075 mM | – | ATP hydrolysis rate | 0.425 µM/min and 0.581 µM/min |
| COc1ccc(F)cc1C(=O)NCc1ccc(-c2nn([C@@H](C)C(F)(F)F)c(N)c2C(N)=O)cc1 | BTK (Homo sapiens, UniProt Q06187, C481S) | surface plasmon resonance | – | – | – | dissociation half-life | 1.5 h |
| O=c1nc(SCc2cc(F)cc(C(F)(F)F)c2)nc(SCc2ccc3ccccc3n2)[nH]1 | TOP2A | decatenation | – | 125 µM | – | mean decatenated DNA | 0% |
| CC[C@@H](C)[C@@H](NC(=O)[C@@H](Cc1ccc(O)cc1)NC(=O)[C@H]1CCCN1C(=O)[C@@H](CCCNC(=N)N)NC(=O)[C@H](N)Cc1c[nH]cn1)C(=O)N[C@H](C)C(=O)N[C@H](Cc1c[nH]cn1)C(=O)N[C@H](CCCNC(=N)N)C(=O)N[C@@H](C(=O)N[C@H](Cc1ccc(O)cc1)C(=O)N[C@H](CO)C(=O)N[C@H](Cc1ccccc1)C(N)=O)C(C)C | Programmed cell death 1 ligand 1, with PD-1 (Cd274, Mus musculus, UniProt Q9EP73) | PD-1-Fc binding | MC-38 | concentration not given, 48 h | – | PD-L1 blocking rate | 7.78% and 7.6% and 9.98% |
| C=CC(=O)N1CCC(COCC(=O)N2CCN(c3nc(-c4cnc(N)nc4C(F)F)nc(N4CCOC[C@@H]4C)n3)CC2)CC1 | Myosin-IIIa (MYO3A, Homo sapiens, UniProt Q8NEV4) | KINOMEscan | – | 1 µM | – | remaining binding | 100% |
| Nc1nc2c(ncn2[C@@H]2O[C@@H]3COP(=O)(O)O[C@H]3[C@H]2O)c(=O)[nH]1 | Cone cGMP-gated channel (Morone saxatilis, UniProt Q3I0N1+Q3I0N2) | channel current, agonist, suction electrode | cone outer segments | with: 20 µM Ca2+ | – | Hill coefficient | 2.11 ± 0.49 |
| c1ccc(-c2n[nH]cc2-c2ccnc3ccccc23)nc1 | MKC1 | kinase binding, competitor, MIB/MS competition, item: MKC1 | Candida albicans cell lysate | 1 µM | baseline: DMSO | log2 fold change | 1.32 |
| COc1ccc(Oc2ccc(CN(Cc3ccccc3)Cc3cnc4nc(N)nc(N)c4n3)cc2)cc1 | Pteridine reductase 1 | – | – | hDHFR weight 10 | baseline: LmPTR1, LmDHFR over hDHFR, 1.0 selective, 0.0 non-selective | partition index | 0.99 |
| CC[C@@H]1[C@H](F)C(=O)N[C@@H]1COc1nccc2cc(C(N)=O)c(OC)cc12 | PHKG2 (Homo sapiens, UniProt P15735) | ATP-site probe binding, ActivX profiling | THP-1 cell lysate | 0.01 mM, Lys1 site | – | inhibition | 15.9% |
| CCOc1ccc2c(-c3cc(C)nc(Nc4cc(OC)cc(C(F)(F)F)c4)n3)cnn2n1 | HIPK1 (Homo sapiens, UniProt Q86Z02) | NanoBRET target engagement | live cells | concentration not given, no binding | – | binding | no binding |
| COc1ccc(C(=O)/C=C/c2cccc(-c3cccc(-c4ccc(CNC(CO)CO)c(OC)n4)c3C)c2)cc1 | CD274 (Homo sapiens, UniProt Q9NZQ7) | degrader, western blot | HL-60 | 1 µM | – | degradation | < 5% |
| N#Cc1ccc2[nH]cc(CCCCN3CCN(c4ccc5oc(C(N)=O)cc5c4)CC3)c2c1 | SLC6A4 (Homo sapiens, UniProt P31645, I172M/S438T) | [3H]5-HT uptake, inhibitor | COS-7 | – | – | Hill coefficient | 0.83 ± 0.16 |
| Nc1ccc(C(=O)O)cc1 | BEST2 | whole-cell patch clamp | HEK293 transiently expressing channel | concentration not given, membrane potential 80 mV | – | current density | 82.6 pA/pF and 199 pA/pF and 172 pA/pF and 280 pA/pF and 326 pA/pF and 250 pA/pF |
| CC[S+]([O-])c1nc(-c2ccccc2)cc(C(F)(F)F)n1 (stereo not drawn) | KPNB1 (Homo sapiens, UniProt Q14974, C585A) | thermal shift | – | 30 µM, 2 h | – | Tm1 | 44.9 °C |
| O=C(O)C1=CCNCC1 | BEST2 | whole-cell patch clamp | HEK293 transiently expressing channel | concentration not given, membrane potential -100 mV | – | current density | -241 pA/pF and -187 pA/pF and -189 pA/pF and -492 pA/pF and -240 pA/pF |
| Nc1nc2c(nc(Sc3ccc(Cl)cc3)n2C2O[C@@H]3COP(=O)(O)O[C@H]3[C@H]2O)c(=O)[nH]1 (stereo in doubt) | anti-cGMP antibody | antibody binding, competitive cGMP EIA | – | concentration not given, acetylated samples | baseline: EC50 cGMP over EC50 cpd, higher = stronger binding | relative binding affinity | 2.41 |
| Nc1nc2c(ncn2[C@@H]2O[C@H](COP(=O)(O)O)[C@@H](O)[C@H]2O)c(=O)[nH]1 | GUK1 (Homo sapiens, UniProt Q16774, R148A) | binding, ITC | – | with: GMP | – | -TΔS | 3.96 kcal/mol |
| CC1(C)O[C@@H]2[C@@H](CO[C@@]3(COS(N)(=O)=O)OC(C)(C)O[C@@H]23)O1 | CA4 (Homo sapiens, UniProt P22748) | ITC | – | concentration not given, 25 °C | – | intrinsic binding ΔH | -7.15 kcal/mol |
| O=c1nc(SCc2cc(F)cc(C(F)(F)F)c2)nc(SCc2nc3ccccc3[nH]2)[nH]1 | TOP2A | decatenation | – | 15.6 µM, replicate 2 | – | decatenated DNA | 87.1% |
| c1ccc(CCCCCOCCc2ccc3c(c2)OCCN3)cc1 | ATP2A2 (Sus scrofa, UniProt P11607) | ATPase Vmax increase, activator | pig microsomes | 0.1 to 50 µM | baseline: vehicle | Emax | ~34% |
| C[C@@H](N)[C@H]1CC[C@H](C(=O)Nc2ccncc2)CC1 | PKN1 (Homo sapiens, UniProt Q16512) | inhibitor | – | – | – | Hill slope | -0.841 |

| SMILES | tested on | assay | test system | conditions | scale | endpoint | result |
| --- | --- | --- | --- | --- | --- | --- | --- |
| O=c1nc(SCc2ccc(C(F)(F)F)cc2)nc(SCc2ccc3sccc3c2)[nH]1 | TOP2A | decatenation | – | 31.25 µM | – | mean decatenated DNA | 0% |
| N[C@@H](Cc1ccccc1)C(=O)O | ADRB2 (Homo sapiens, UniProt P07550) | – | HEK293 expressing β2AR | 33 µM | – | cAMP level | 18.3 pmol/mg protein and 19.7 pmol/mg protein and 21.7 pmol/mg protein and 20.8 pmol/mg protein |
| C[C@@H](O)[C@H](NC(=O)[C@H](Cc1ccc(O)cc1)NC(=O)[C@H](Cc1ccc(O)cc1)NC(=O)[C@H](CO)NC(=O)[C@H](CCCNC(=N)N)NC(=O)[C@H](Cc1c[nH]cn1)NC(=O)[C@@H](N)Cc1c[nH]c2ccccc12)C(=O)N[C@@H](Cc1c[nH]c2ccccc12)C(=O)N[C@@H](CC(N)=O)C(=O)NCCCC[C@H](NC(=O)[C@H](CC(N)=O)NC(=O)[C@H](Cc1c[nH]c2ccccc12)NC(=O)[C@@H](NC(=O)[C@H](Cc1ccc(O)cc1)NC(=O)[C@H](Cc1ccc(O)cc1)NC(=O)[C@H](CO)NC(=O)[C@H](CCCNC(=N)N)NC(=O)[C@H](Cc1c[nH]cn1)NC(=O)[C@@H](N)Cc1c[nH]c2ccccc12)[C@@H](C)O)C(N)=O | Programmed cell death 1 ligand 1, with PD-1 (CD274, Homo sapiens, UniProt Q9NZQ7) | PD-1 binding, inhibitor, competitive ELISA | – | 2.5 µM | baseline: PBS over 2% BSA | fold reduction of blocking | 1.5 fold |
| COCCC(=O)N1CCC(Oc2ccccc2)C1 (stereo not drawn) | Histone-lysine N-methyltransferase SETDB1, triple tudor domain (SETDB1, Homo sapiens, UniProt Q15047) | binding, affinity selection mass spectrometry | – | – | baseline: other proteins in batch | log fold enrichment | -0.125 |
| CC(C)c1noc2ncc(C(=O)c3ccccc3O)cc12 | Otop1 (Mus musculus, UniProt Q80VM9) | pH 8.5-evoked current, patch clamp | – | 10 µM, pH 8.5, third pulse after pH 8.5 alone | – | normalized current I3/I1 | 1.02 |
| Cc1ccc(NC(=O)CCCCCC(=O)Nc2ccccc2N)cc1 | HBL-1 | – | – | 0.1 µM, 120 h | – | viability | 138% |
| O=c1nc(SCc2cc(F)cc(C(F)(F)F)c2)nc(SCc2ccc3ncsc3c2)[nH]1 | TOP2A | decatenation | – | 125 µM, replicate 1 | – | decatenated DNA | 0% |
| Cc1cc(Nc2nn(-c3ccccc3)c(=O)c3ccccc23)n[nH]1 | HBL-1 | – | – | 0.1 µM, 120 h | – | viability | 128% |
| Cc1ccc(N(C)C(=O)/C=C/c2ccco2)cc1 | Chrna7 (Rattus norvegicus, UniProt Q05941) | potentiator | – | concentration not given, holding potential -80 mV, with: acetylcholine 30 µM | – | potentiation | inactive |
| C[C@@H](c1ccc(-n2cnc3c(N)ncnc32)cc1)N1CCc2nn(C)c(Cc3ccccc3)c2C1=O | MAP4K3 (Homo sapiens, UniProt Q8IVH8) | KINOMEscan | – | 0.1 µM | baseline: DMSO control | remaining binding | 100% |
| CCC(C)(NCCc1ccc(Cl)c(Cl)c1)c1cccc(NC2=CC(=O)N(C3CCC(=O)NC3=O)C2=O)c1 (stereo not drawn) | Cereblon/Ikaros (Homo sapiens, UniProt Q13422+Q96SW2) | protein degradation, degrader, HiBiT luminescence | Jurkat | – | – | Dmax | 75% |
| COC(=O)c1cn(C)c2ccc(-c3cccnc3)cc12 | Bile acid receptor (NR1H4, Homo sapiens, UniProt Q96RI1) | reporter gene, Gal4 hybrid reporter | – | 10 µM | baseline: vehicle | activation | 0.81 fold |
| COc1cc(-c2cncc3c2CN(C)Cc2cc(N4CCNCC4)ccc2-3)cc(OC)c1OC | AXL (Homo sapiens, UniProt P30530) | kinase activity | – | 1 µM, human enzyme, with: ATP 10 µM | baseline: DMSO control | remaining activity | 86% |
| CC(C)c1ccc(CSc2nc(SCc3ccc4sccc4c3)[nH]c(=O)n2)cc1 | TOP2A | decatenation | – | 125 µM | – | mean decatenated DNA | 0.07% |
| O=c1cc(-c2ccc(OS(=O)(=O)[O-])cc2)oc2cc(OS(=O)(=O)[O-])cc(OCc3cccc(COc4cc(OS(=O)(=O)[O-])cc5oc(-c6ccc(OS(=O)(=O)[O-])cc6)cc(=O)c45)n3)c12.[Na+].[Na+].[Na+].[Na+] | Neutrophil elastase (ELANE, Homo sapiens, UniProt P08246) | – | – | 750 nM, with: chromogenic substrate | – | Vmax | 19 ± 0.7 mAU/min |
| c1coc(-c2n[nH]cc2-c2ccnc3ccccc23)c1 | MKC1 | kinase binding, MIB/MS competition | Candida albicans lysate | 10 µM | baseline: DMSO, negative = stronger binding | log2 fold change | -0.24 |
| Nc1ncnc2c1ncn2[C@@H]1O[C@H](COP(=O)(O)CP(=O)(O)OP(=O)(O)O)[C@@H](O)[C@H]1O | P2X purinoceptor 1 (P2RX1, Homo sapiens, UniProt P51575, R292A) | calcium influx | – | 100 µM | baseline: ionomycin response | calcium influx | 100% |
| COC(=O)C1CCN(C(=O)Cc2ccc(NCc3cnc4nc(N)nc(N)c4n3)cc2)CC1 | Pteridine reductase 1 | – | – | hDHFR weight 10 | baseline: LmPTR1, LmDHFR over hDHFR, 1.0 selective, 0.0 non-selective | partition index | 0.88 |
| COc1cccc2c(-c3ccc(CN4CCOCC4)cc3)cc(C(=O)Nc3ccc(C(=O)O)cc3)nc12 | RARB (Homo sapiens, UniProt P10826) | reporter gene, antagonist | – | up to 3300 nM, with: ATRA 4 nM (EC80) | – | IC50 | inactive |
| O=C(O)c1ccc(Nc2ncc3c(n2)-c2ccc(Cl)cc2C(c2c(F)cccc2F)=NC3)cc1 | ErbB4(h) | kinase activity | – | 1 µM | – | remaining activity | 74% |
| O=C1C(SCCO)=C(SCCO)C(=O)c2ccccc21 | TGM2 (Homo sapiens, UniProt P21980) | transglutaminase activity, inhibitor | – | with: 0.02% Triton X-100 | baseline: with over without Triton X-100 | IC50 fold increase | 1.3 to 2.5 fold |
